Assay results of several laboratories.
Parts stem from different laboratories: compare values within a part only. Changes are numbered by the printed parent chain.

Block 1 — technique: protein-binding microarray; molecule type: double-stranded DNA, one strand shown; medium: in vitro; tested at: not given; direction: higher = stronger binding
Target: Max dimerization protein 1, bHLH-zipper, MAX partner unstated (MXD1, Homo sapiens, UniProt Q05195, residues 56-136)
Setting: k-mer, scored over probes, only values ≥0.25
Residues (chain): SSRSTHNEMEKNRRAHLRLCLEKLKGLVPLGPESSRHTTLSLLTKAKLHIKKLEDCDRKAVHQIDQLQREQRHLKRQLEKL
| Sequence | E-score |
| --- | --- |
| AATGCACG | 0.299 |
| AAACACGC | 0.397 |
| CACGCTGG | 0.305 |
| CATGGCTA | 0.306 |
| ACCACGCC | 0.362 |
| ACACGAGG | 0.458 |
| ACTTGCAC | 0.254 |
| CGCATGAG | 0.34 |
| CATGGCGA | 0.265 |
| TCACCCCA | 0.284 |
| CCCACTCC | 0.337 |
| GTGCAGAA | 0.303 |
| CATGGTAG | 0.333 |
| CGTGCGAA | 0.309 |

Block 2 — technique: competition protein-binding microarray; molecule type: double-stranded DNA, one strand shown; medium: in vitro; tested at: 2 µM; together with: Cbf1 competitor, 0.05 µM; direction: higher = stronger binding; constant ends, left off below: … GTCTTGATTCGCTTGACGCTGCTG
Target: Phosphate system positive regulatory protein PHO4, full length, GST-tagged (PHO4, Saccharomyces cerevisiae, UniProt P07270, residues 1-312)
Setting: whole 60-bp probe, lowest competitor level
Target sequence (chain): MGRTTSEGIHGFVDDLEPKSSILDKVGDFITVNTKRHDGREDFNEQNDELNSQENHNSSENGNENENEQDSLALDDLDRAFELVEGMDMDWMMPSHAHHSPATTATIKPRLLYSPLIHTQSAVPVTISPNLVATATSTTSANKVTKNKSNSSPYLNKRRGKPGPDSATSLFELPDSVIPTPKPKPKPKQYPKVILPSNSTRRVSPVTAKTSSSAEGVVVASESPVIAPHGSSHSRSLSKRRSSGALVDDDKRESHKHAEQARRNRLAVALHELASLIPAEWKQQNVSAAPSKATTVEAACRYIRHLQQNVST
| Sequence | fluorescence intensity |
| --- | --- |
| ACTGCCAGGAACTGGCACGTTAGCCCTATTACGATC | 7980 a.u. |
| CTAACGAAGGTTTTTCACGTGCAGTACAAGCCAAGT | 13000 a.u. |
| GGCCGCTCAAGGGAGCACGTGACCTCGGCCTCTGGC | 15200 a.u. |
| AATATTGGCCTTTTGCACGTTCGCGACTAAACGAGT | 12400 a.u. |
| TTACCATGCCAATCAAACGTGCAAAAAAGATGAGTA | 9670 a.u. |
| GATCTTGACCTTACCGTCGTGACGGGCAGCCTTGAT | 4410 a.u. |
| AAAACCCTAACAATACACATGATGCAACTGGAACGC | 7630 a.u. |
| CCTTAGTTGGGTCTGCATGTGGGCAGGATCTACCAA | 9550 a.u. |
| GTAAGAACTCAGCTTCCCGTGAGGATGGTTCTAATG | 4290 a.u. |
| CTAACGAAGGTTTGTCTAGTGGGTGACAAGCCAAGT | 3720 a.u. |
| GGGTGTCGATACCGTCACGTGAAGACATTCCAAGTC | 11600 a.u. |
| TGCGCAACAACTTGTCACGTAACTTTATGTCTAGAA | 3990 a.u. |
| TCAAAAACGGACATTACTTGCCAGACGCGAATGATA | 3610 a.u. |
| GCTTGTTTTCTCCGTCACGGGTTTAGACCTTGGTGG | 7990 a.u. |

Block 3 — technique: DHFR PCA, deep sequencing; medium: yeast; together with: (+)-ABA 1.4 µM; relative to: wild-type fitted maximum; direction: higher = stronger binding
Target: ABI1, truncated, D143A, DHFR fusion (Arabidopsis thaliana)
Setting: methotrexate growth selection, single substitutions
Starting sequence: PYL1, truncated, DHFR fusion (Arabidopsis thaliana); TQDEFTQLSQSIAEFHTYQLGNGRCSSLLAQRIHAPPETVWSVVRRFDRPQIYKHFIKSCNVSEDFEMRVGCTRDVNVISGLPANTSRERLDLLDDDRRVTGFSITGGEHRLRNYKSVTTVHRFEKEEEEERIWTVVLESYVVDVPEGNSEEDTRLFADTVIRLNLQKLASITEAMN; partner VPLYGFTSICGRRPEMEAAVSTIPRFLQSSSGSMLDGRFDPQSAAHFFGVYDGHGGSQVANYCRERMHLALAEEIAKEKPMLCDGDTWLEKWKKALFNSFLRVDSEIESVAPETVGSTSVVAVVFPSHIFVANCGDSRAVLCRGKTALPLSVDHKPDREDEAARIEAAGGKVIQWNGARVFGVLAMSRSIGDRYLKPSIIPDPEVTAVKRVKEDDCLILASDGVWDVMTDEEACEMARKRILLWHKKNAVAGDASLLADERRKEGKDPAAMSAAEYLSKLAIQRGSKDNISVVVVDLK
| Substitution | relative binding score [%] |
| --- | --- |
| Q2D | 71.8 |
| E139K | 9.47 |
| V145S | -14.1 |
| S104P | -4.21 |
| E4W | 57.3 |
| F157M | 14 |
| S171G | 26 |
| F15R | -3.34 |
| T135R | -1.89 |
| N85T | 80.6 |
| R74K | 1.58 |
| E131F | 42.1 |
| S140G | 9.84 |

Block 4 — technique: RNA Bind-n-Seq; molecule type: RNA; medium: in vitro; tested at: 200 nM; setting: whole 134-nt RNA, ends assumed; together with: 150 mM LiCl; relative to: input library; direction: higher = stronger binding; each molecule: 7-deaza-guanosine replaces G
Target: Fragile X messenger ribonucleoprotein 1, C-terminal low-complexity region (Fmr1, Mus musculus, UniProt P35922)
Constant ends, left off below: GGGAGUUCUACAGUCCGACGAUC … UGGAAUUCUCGGGUGUCAAGG
| Sequence | log2 enrichment |
| --- | --- |
| UCCUCAAGUCCUGUGCUACACAUCGUAUGUACCGAAUCGGGAGGAGGGGAGGAAAGUAUUAUGUUACGCCGUUCGGAUCUGCACUUCCAG | -1.33 |
| CCUCAAGUCCUGUGCUACACAUCGUAUGUACCGAAUCGUGUGUGUGUGUGUGUAAAGUAUUAUGUUACGCCGUUCGGAUCUGCACUUCCA | -0.434 |
| CAAGUCCUGUGCUACACAUCGUAUGUACCGAAUCAAACCCAAACCCAAAUUUAAAAAAGUAUUAUGUUACGCCGUUCGGAUCUGCACUUC | 0.943 |
| GUCCUGUGCUACACAUCGUAUGUACCGAAUCGGGCCCCCCGGCCCCCCGGCCCCCCGGGAAAGUAUUAUGUUACGCCGUUCGGAUCUGCA | 1.07 |
| UGGCCCUGGUGGCAUGCGGGGAGGAAGAGGUGGCCUCAUGGAUCGUGGUGGUCCCGGUGGAAUGUUCAGAGGUGGCCGUGGUGGAGACUG | -0.799 |
| UAACUUUAGAGGAGGAUCUGAUGGAUAUGGCAGUGGACGUGGAUUUCGGGAUGGCUAUAAUGGGUAUGGAGGAGGACCUGGAGGUGGCAA | -0.656 |
| UUACAUUACCUGGUGAAAUAGACAUUGACAGUAUCUCCUAUGAAGAGCUUUCACCACCUGAUGAAGAGCCUGCCAAGAAUAAAAAGGAAA | -2.03 |

Block 5 — target: CCNE1, cyclin fold, Cln2 fusion (human); technique: yeast growth competition, sequencing; medium: yeast; setting: strong parent motif; relative to: not given; direction: higher = stronger binding
Starting sequence: CDC25A docking peptide (human); PPHRRRLLFACSP
| Substitution | normalised enrichment score |
| --- | --- |
| S12V | 1.63 |
| A10M | 1.94 |
| S12C | 1.64 |
| P2C | 1.98 |
| R5H | 1.19 |
| A10D | 4.17 |
| P2W | 1.16 |
| R4C | 3.41 |
| F9R | 1.47 |
| H3P | 0.63 |
| R6D | 0.487 |
| C11G | 1.31 |

Repeated from above (block 1):
| Sequence | E-score |
| --- | --- |
| ACCACGCC | 0.362 |
| ACACGAGG | 0.458 |
| ACTTGCAC | 0.254 |
| CGCATGAG | 0.34 |
| CATGGCGA | 0.265 |
| TCACCCCA | 0.284 |
| CCCACTCC | 0.337 |
| GTGCAGAA | 0.303 |
| CATGGTAG | 0.333 |
| CGTGCGAA | 0.309 |
